Published values of several laboratories.
Each numbered part is a random draw from the data of one study; scales do not carry over between parts.

Sample 1
Target: RNA binding protein fox-1 homolog 2, RRM domain, GST-SBP tag (RBFOX2, Homo sapiens, UniProt O43251-10, residues 100-194)
Method: RNA Bind-n-Seq
Molecule type: RNA
Matrix: in vitro
Tested at: 365 nM
Setting: natural RNA segment, single round, ends assumed
Baseline: no-protein control
Reading: higher = stronger binding
Residues (chain): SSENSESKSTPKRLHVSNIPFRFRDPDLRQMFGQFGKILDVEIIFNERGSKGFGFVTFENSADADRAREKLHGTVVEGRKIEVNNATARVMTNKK
| Strand | RBNS enrichment (R) |
| --- | --- |
| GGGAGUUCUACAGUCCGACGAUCACAAACAUAAAAAUGGUUUCUCUUCUCAAUCUUCUAAAGUCUGCCUGCCUUUUCCAGGGGUAGGUCUGUUUCUUUGCUGUUCUAUUGUCUUGAGAGCACAGACUAACACUUGGAAUUCUCGGGUGCCAA | 0.613 |
| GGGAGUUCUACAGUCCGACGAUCUAUGAUCAGCUCCAGCUACCUGGGCAGUUGUGGUGGGGUGGAUGGGAAGGCCCACAGCCCAAGGGAUCCAUAAUAAUAAUUGCUUGGCCAGCCAUGUGGCCUGCUGGCGUUGGAAUUCUCGGGUGCCAA | 0.711 |
| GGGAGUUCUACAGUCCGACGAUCUUAUAACAAAAUAAUUAUGGUUGAAAUGUCUGUGGUUCCUUGGAAAUGCUGCGCUCUUUGUGUUUUUCCAUCAUUAGUGCAGUUGGAAUGAAUGUGUAUAGGUCAGAGGUUGGAAUUCUCGGGUGCCAA | 3.28 |
| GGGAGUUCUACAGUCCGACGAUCACCGCCUCCGGAUGGAGCAGAGCCUCACGGACAUUCCUGAGGAGCCCAGGAAAGGGCCAGCUUGGCGGGAAGGGGCUCUCCCUAGGGGUGCAGCUGGGAGGAGGUCCGAGUGGAAUUCUCGGGUGCCAA | 1.13 |
| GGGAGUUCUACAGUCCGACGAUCUUCUGUGGCACCAUUGAGUACAGGGCCCCAGAGAUUCUAGUGCGCACUGGUCACAACCGGGCAGUGGACUGGUGGAGCCUGGGAGCCCUGAUGUACGACAUGCUCACUGGUGGAAUUCUCGGGUGCCAA | 0.432 |
| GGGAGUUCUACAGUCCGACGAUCUGUCACCUGCUGUGAUUCCUAGAGUCAGAAUCAGACUGCAGUGGCCACAGGCACAAGUGGGAAGUGAUGCAGCUCAAAGGUUUGGAUGAGAUGGGAUGUGCAGCGAUUGAUGGAAUUCUCGGGUGCCAA | 1.04 |
| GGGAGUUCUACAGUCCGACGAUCAGUGAAAGUUGUUUCAACAUUUUAAACAAACAGUGGUUAUAGACUCUUUCUUUAACCAUUGUAUAUUUUCUUCCAUUCUUGUCAUUGGUCAAUAGGGGAGGGUAGAUUAGUGGAAUUCUCGGGUGCCAA | 0.611 |
| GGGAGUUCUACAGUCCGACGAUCAGUGGGCUGUUUUGCCUUGUUUGUGCUUCUUCAGGACAGAGCAGUCCUGAUGAUACAGUAAUUGAUGGCAGACAGUUCUGUCUCCUUCCCAGUUGUUAGGCUGCCCCCCUUGGAAUUCUCGGGUGCCAA | 0.331 |
| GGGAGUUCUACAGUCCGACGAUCCCUUCUCCUUGGCGUGGCUUACUUCAAGGGGCAGUGGGUAACCAAGUUUGACUCGAGAAAGACGACCCUCCAGGAUUUUCAUUUGGACGAGGACAGGACCGUGAGAGUCCUGGAAUUCUCGGGUGCCAA | 0.282 |
| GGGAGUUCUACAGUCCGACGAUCUUUUGUUUUCUUUUUUCCUUUAAAGAGAAUUUUUGUUUUGUUUUGAUUCUGUUCUCGCUUUUAAAGGAUGCUGAGAUGGUGAUGUUACUCUCCAUUUUUGGUACCAGUUCUGGAAUUCUCGGGUGCCAA | 0.806 |
| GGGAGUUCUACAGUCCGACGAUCCAUUAUUAGAAAUUCCUUCUCUCAUUAUUUCAGGAUUAGUAGUUCUGUGUAAUUCAUUUUACAAUUUCAAAUUGUUCUGGUGCCAUAAAGUAUACAGACUACUUUAAAGAUGGAAUUCUCGGGUGCCAA | 0.444 |
| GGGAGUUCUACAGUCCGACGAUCUUUCUUUAUUGCUACAGAGUAUCCUCUAUAAGUUAUUAAACGAGUGUAAUGGUAUAAUGCCCUUCCAUCACACAACAGGACACCACCCCAGUUUUGUUUUCUGGGUUUCUUGGAAUUCUCGGGUGCCAA | 0.623 |

Sample 2
Target: Ras GTPase-activating protein-binding protein 1, full length (G3BP1, Homo sapiens, UniProt Q13283)
Chain of UniProt Q13283 (whole entry, looked up): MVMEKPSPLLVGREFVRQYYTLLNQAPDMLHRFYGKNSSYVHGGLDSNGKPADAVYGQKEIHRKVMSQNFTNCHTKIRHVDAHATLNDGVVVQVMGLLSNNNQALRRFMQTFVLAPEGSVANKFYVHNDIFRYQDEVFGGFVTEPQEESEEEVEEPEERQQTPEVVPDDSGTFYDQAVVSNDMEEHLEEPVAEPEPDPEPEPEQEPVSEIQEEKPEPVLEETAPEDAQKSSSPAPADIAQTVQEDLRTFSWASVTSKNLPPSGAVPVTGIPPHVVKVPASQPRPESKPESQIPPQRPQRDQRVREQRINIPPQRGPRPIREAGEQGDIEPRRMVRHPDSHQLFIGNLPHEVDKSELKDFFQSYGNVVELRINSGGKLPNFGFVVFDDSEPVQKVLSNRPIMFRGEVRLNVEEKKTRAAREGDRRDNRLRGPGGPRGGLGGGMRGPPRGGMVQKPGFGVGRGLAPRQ
Method: RNA Bind-n-Seq
Molecule type: RNA
Matrix: in vitro
Tested at: 200 nM
Setting: whole 134-nt RNA, ends assumed
Added: 150 mM KCl
Baseline: input library
Reading: higher = stronger binding
| Strand | log2 enrichment |
| --- | --- |
| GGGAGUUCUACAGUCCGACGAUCUGGCCCUGGUGGCAUGCGGGGAGGAAGAGGUGGCCUCAUGGAUCGUGGUGGUCCCGGUGGAAUGUUAAGAGGUGGCCGUGGUGGAGACAGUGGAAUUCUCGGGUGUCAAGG | 0.28 |
| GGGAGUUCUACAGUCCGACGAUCCCCAUCAUGUUCAGAGGUGAGGUCCGUCUGAAUGUCGAAGAGAAGAAGACUCGAGCUGCCAGGGAAGGCGACCGACGAGAUAAUCGCCUUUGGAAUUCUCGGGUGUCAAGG | -1.02 |
| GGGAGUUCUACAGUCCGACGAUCCAAGUCCUGUGCUACACAUCGUAUGUACCGAAUCGGUUUUUUUGGAGGAAAAAGGAAAGUAUUAUGUUACGCCGUUCGGAUCUGCACUUCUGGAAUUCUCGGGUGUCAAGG | -0.509 |
| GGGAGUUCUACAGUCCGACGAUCGCAGGAAGUAAAAACAAAUGGAAAUGCUUCGGAUAGUGGCAGGGGUGGGGGUUGCUAAGGAAUGGGUGGGAUGGGAGUGGGUAAAGAGUUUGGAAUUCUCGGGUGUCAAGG | 0.965 |
| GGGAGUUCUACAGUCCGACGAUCACCAUGCAGGUGGGCAUCUUUGGGAAGUGGGGCAAGGGGGGGAUAGGGAGGGGGGUAACACUUUGGGAACAGGUGGUCCCGGGUCGUUUCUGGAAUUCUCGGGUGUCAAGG | 1.36 |
| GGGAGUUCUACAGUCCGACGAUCUCAAGUCCUGUGCUACACAUCGUAUGUACCGAAUCGGAAAGGAAAAAGGUUUGGAAAGUAUUAUGUUACGCCGUUCGGAUCUGCACUUCCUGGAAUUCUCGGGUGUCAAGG | -1.4 |
| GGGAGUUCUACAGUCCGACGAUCAAGUCCUGUGCUACACAUCGUAUGUACCGAAUCGGGCCCGGGGCCCGGGCCCGGGGAAAGUAUUAUGUUACGCCGUUCGGAUCUGCACUUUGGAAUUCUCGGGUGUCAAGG | -1.29 |
| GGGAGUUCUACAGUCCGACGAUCAAGUCCUGUGCUACACAUCGUAUGUACCGAAUCGGGUUUUUGGGAAAAAGGGAGGGAAAGUAUUAUGUUACGCCGUUCGGAUCUGCACUUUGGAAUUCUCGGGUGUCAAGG | 0.226 |
| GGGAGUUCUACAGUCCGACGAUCUCCUGUGCUACACAUCGUAUGUACCGAAUCGGGGAAAAAGGGGAAAAAAAGGGGAGGGGAAAGUAUUAUGUUACGCCGUUCGGAUCUGCAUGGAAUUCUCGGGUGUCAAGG | 0.714 |
| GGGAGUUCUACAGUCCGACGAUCGUCCUGUGCUACACAUCGUAUGUACCGAAUCGGGGUUUUUUUGGGGUGGGGUUUGGGGAAAGUAUUAUGUUACGCCGUUCGGAUCUGCACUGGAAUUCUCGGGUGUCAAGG | 0.457 |

Sample 3
Target: Histone acetyltransferase KAT6A, winged helix 1, GST fusion (KAT6A, Homo sapiens, UniProt Q92794, residues 1-85)
Method: protein binding microarray
Molecule type: double-stranded DNA, one strand shown
Matrix: in vitro
Tested at: not given
Setting: 8-mer, flanks averaged, mean of 2 arrays, mostly near background
Baseline: not given
Reading: higher = stronger binding
Construct (chain): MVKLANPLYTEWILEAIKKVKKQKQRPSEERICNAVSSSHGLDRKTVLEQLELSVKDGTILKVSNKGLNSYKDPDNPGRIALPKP
| Strand | E-score |
| --- | --- |
| CAATTTTA | -0.135 |
| AGGTCACC | -0.0681 |
| TAATCCGA | 0.0264 |
| TGAAACCA | -0.0293 |
| CATCTAGC | -0.0985 |
| AAGGTTTG | -0.146 |
| CCATGACA | -0.16 |
| GAGTCACC | -0.0406 |
| ACGGTGAC | 0.0603 |
| AGGCGGTG | 0.0986 |
| AACCATCG | -0.0248 |
| ATGAATGC | 0.0135 |
| AAGGTTCG | 0.00366 |
| CTAAGCAA | -0.0795 |
| ATAAGGTG | -0.107 |
| CGATTGGA | -0.257 |
| ATGCGGTC | 0.161 |
| ATCTGAAT | -0.279 |
| ATTGACCG | 0.317 |
| GCTGAACA | -0.223 |
| AAGCCTTA | -0.0115 |
| AGGGGAGG | -0.193 |
| CAGCCGGG | 0.165 |
| ATTACTCA | -0.0587 |

Further values, each from its own experiment
Molecule type: peptide
Reading: direction not given
| Molecule | target or system | effect on | method | organism | strain | setting | enrichment score |
| --- | --- | --- | --- | --- | --- | --- | --- |
| REASKSRVQLFKDDPM | human cyclin F-Cln2 fusion | yeast growth | competitive growth deep sequencing | Saccharomyces cerevisiae | – | peptide tiling library | 0.0583 |
| GAPLKKLFTSTGL | Saccharomyces cerevisiae | peptide binding | yeast competitive growth sequencing | – | cyclin F-Cln2 fusion | library 1 | -0.33 |

A few entries again (sample 3):
| Strand | E-score |
| --- | --- |
| ATCTGAAT | -0.279 |
| ATTGACCG | 0.317 |
| GCTGAACA | -0.223 |
